Measurements collected from several papers.
Every numbered part comes from another study and shows a few of its results, in no order. “And” joins repeats or separate records; there may be more than shown. ± gives the spread as reported.

Sample 1
Structure (SMILES): O=C1NC2(CC2)COc2ncc(F)cc2[C@H]2COCCN2c2ccn3ncc1c3n2
Matrix: blood
Route: oral
Time: end of recovery
Setting: 4-week subacute toxicity
For Sprague-Dawley rats, male; 20 mg/kg/day: eosinophil percentage read 1.9 ± 0.93%.
The eosinophil percentage was 1.08 ± 0.25% (Sprague-Dawley rats, male; 5 mg/kg/day).
Sprague-Dawley rats, female; 20 mg/kg/day — eosinophil percentage: 2.2 ± 0.08%.

Mixed results
B1: enzyme Y161A (Streptomyces parvus, UniProt A0A7K3RVR3); chain MYVPEQYRPRDASWTLELIRSNPLALLVTNGPQHPWATHVPVLFAEEPDGPEGPDGLDATGDDLVGRRLLGHLNLMNPHWEALAGAGHALLVFQGPGSYVSPTVYETAPAAPTWDFTSVHVHGALRLIDDPDDLRKIVQATVRAYEREVGTDWDMSESLEAFERLLPGVRGFEIKIESVDSMFKLSQEQLPETVTKVIDSFRRSDGGRRQELATMIERAASD
The viability of Cc1ccc(OCCN(C)C)cc1C(=O)N[C@H](C)c1cc(-c2ccc(C#N)nc2)nc2ccccc12 is reported as -0.6% and 0.2% (Vero E6; 125 µM).
The relative abundance of COc1ccccc1-c1n[nH]c2nc(NC3CCN(C(=O)Cc4ccc(F)cc4F)CC3)ncc12 is reported as 1.06 (bead binding, competition bead pull-down, refers to: LINJ.08.1220; Leishmania donovani axenic amastigote extract; 10 µM; baseline: vehicle).
The Km of `B1 (enzyme Y161A)` is reported as 7.43 mM (N[C@@H](CCCNO)C(=O)O; steady-state kinetics; pH 8, 25 °C, with: heme).
With CC(C)CC(C(=O)N1CC2(CC1C#N)C(=O)Nc1ccccc12)N(C)C(=O)c1cc2c(F)cc(F)c(F)c2[nH]1 (stereo not shown) the inhibition was 98% (Human coronavirus 229E; cytopathic effect; MRC5; 0.15 µM).
